Published values from different studies.
Values joined by “and” are separate records of one study, mostly repeats; a detail may differ. ± marks the error that the study gave.
CD274: Programmed cell death 1 ligand 1 (CD274, Homo sapiens, UniProt Q9NZQ7)
UDP-3-O-acyl-N-acetylglucosamine deacetylase C40S: UDP-3-O-acyl-N-acetylglucosamine deacetylase (Pseudomonas aeruginosa, UniProt P47205, C40S)
Chrnd/Chrna1/Chrne G173K/S470W: Chrnd/Chrna1/Chrne (Mus musculus, UniProt P02716+P04756+P20782, G173K/S470W)
VPS26A/VPS35/VPS29: VPS26A/VPS35/VPS29 (Homo sapiens, UniProt O75436+Q96QK1+Q9UBQ0)

`CN1CCC[C@H]1c1cccnc1` has a Kd of 26 µM (Chrnd/Chrna1/Chrne (Mus musculus, UniProt P02716+P04756+P20782, G173E)).
`CC[C@@H](C)[C@@H](NC(=O)[C@@H](Cc1ccc(O)cc1)NC(=O)[C@H]1CCCN1C(=O)[C@@H](CCCNC(=N)N)NC(=O)[C@H](N)Cc1c[nH]cn1)C(=O)N[C@H](C)C(=O)N[C@H](Cc1c[nH]cn1)C(=O)N[C@H](CCCNC(=N)N)C(=O)N[C@H](CCCCNC(=O)c1cccc(S(=O)(=O)F)c1)C(=O)N[C@H](Cc1ccc(O)cc1)C(=O)N[C@H](CO)C(=O)N[C@H](Cc1ccccc1)C(N)=O` has a Kd of 1.3 ± 1.9 µM (CD274; microscale thermophoresis; 2 h, His-tagged protein).
`O=C(NO)[C@H]1COC(c2ccc(OC(F)(F)F)c(Cl)c2)=N1` has a Kd of 3.8 µM (UDP-3-O-acyl-N-acetylglucosamine deacetylase C40S; binding, thermal shift).
For `O=[N+]([O-])c1ccc2c(N=Nc3ccc4ccccc4c3O)c(O)cc(S(=O)(=O)O)c2c1`, the Kd was 1.3 ± 0.3 µM (Diphosphomevalonate decarboxylase (Staphylococcus epidermidis, UniProt Q9FD73, R193T)).
For `CC[C@H](C)[C@H](NC(=O)[C@H](CCCCN)NC(=O)[C@@H](NC(=O)[C@H](CCCNC(=N)N)NC(=O)[C@@H](NC(=O)c1ccc2c(c1)C(=O)OC21c2ccc(O)cc2Oc2cc(O)ccc21)[C@@H](C)O)[C@@H](C)O)C(=O)N[C@@H](CC(=O)O)C(=O)N[C@@H](Cc1c[nH]c2ccccc12)C(=O)NC(C)(C)C(=O)N[C@@H](CCCCN)C(=O)N[C@H](C(=O)N[C@@H](CC(C)C)C(=O)NC(C)(C)C(=O)NCC(=O)NCC(=O)NCC(=O)N[C@@H](CSC1CC(=O)N(CCCCCCN2C(=O)CC(SC[C@H](NC(=O)CNC(=O)CNC(=O)CNC(=O)C(C)(C)NC(=O)[C@H](CC(C)C)NC(=O)[C@@H](NC(=O)[C@H](CCCCN)NC(=O)C(C)(C)NC(=O)[C@H](Cc3c[nH]c4ccccc34)NC(=O)[C@H](CC(=O)O)NC(=O)[C@@H](NC(=O)[C@H](CCCCN)NC(=O)[C@@H](NC(=O)[C@H](CCCNC(=N)N)NC(=O)[C@@H](NC(=O)c3ccc4c(c3)C(=O)OC43c4ccc(O)cc4Oc4cc(O)ccc43)[C@@H](C)O)[C@@H](C)O)[C@@H](C)CC)[C@@H](C)CC)C(=O)NCC(N)=O)C2=O)C1=O)C(=O)NCC(N)=O)[C@@H](C)CC` (stereo partly drawn), the Kd was 0.03 ± 0.009 µM (Protein S100-B (Rattus norvegicus, UniProt P04631); fluorescence anisotropy; pH 7.4, Ca2+ present, added: 50-100 nM fluorescein-labelled peptide).
For `O=C(O)C(S)c1ccccc1` (stereo not drawn), the Kd was 0.17 µM (di-zinc VIM-5 metallo-beta-lactamase; NMR).
`C[C@@H](O)[C@H](NC(=O)c1ccc(C#CC#Cc2ccccc2)cc1)C(=O)NO` has a Kd of 0.00835 µM (UDP-3-O-acyl-N-acetylglucosamine deacetylase C40S; binding, thermal shift).
`c1cncc([C@@H]2CCCCN2)c1` gave a Kd of 2.2 µM (Chrnd/Chrna1/Chrne G173K/S470W; resting state binding, agonist, single-channel kinetics).
For `Nc1ncnc2c1ncn2[C@@H]1O[C@H](COP(=O)(O)OP(=O)(O)OP(=O)(O)O)[C@@H](O)[C@H]1O`, the Kd was 106 µM (Heat shock protein 90 homolog (Candida albicans, UniProt P46598); binding, fluorescence polarization competition; 3 h, room temperature, added: geldanamycin-FITC 5 nM).
The Kd of `CC[C@H](C)[C@H](NC(=O)[C@H](CC(=O)O)NC(=O)[C@H](C)NC(=O)[C@H](Cc1ccc(O)cc1)NC(=O)[C@H](CCCCN)NC(=O)c1ccc2c(c1)C(=O)OC21c2ccc(N(C)C)cc2Oc2cc(N(C)C)ccc21)C(=O)N[C@@H](CCC(=O)O)C(=O)N[C@@H](CO)C(=O)N[C@@H](CO)C(=O)N[C@@H](CC(N)=O)C(=O)N[C@@H](Cc1ccc(OP(=O)(O)O)cc1)C(=O)N[C@@H](CCSC)C(=O)N[C@@H](C)C(=O)N1CCC[C@H]1C(=O)N[C@@H](Cc1ccc(O)cc1)C(=O)N[C@@H](CC(=O)O)C(=O)N[C@@H](CC(N)=O)C(=O)N[C@@H](Cc1ccc(O)cc1)C(=O)N[C@@H](CC(=O)O)C(=O)O` is reported as 0.063 µM (Tensin-4, SH2 domain (Homo sapiens, UniProt Q8IZW8); binding).
`CC[C@H](C)[C@H](NC(=O)[C@H](CCC(N)=O)NC(=O)[C@H](CCCNC(=N)N)NC(=O)[C@H](CC(=O)O)NC(=O)[C@H](CCC(=O)O)NC(=O)[C@H](CC(=O)O)NC(=O)[C@H](CO)NC(=O)[C@H](Cc1ccc(O)cc1)NC(=O)[C@H](CCC(=O)O)NC(=O)[C@H](CCCNC(=N)N)NC(=O)[C@H](CC(=O)O)NC(=O)[C@@H]1CCCN1C(=O)[C@H](Cc1ccc(O)cc1)NC(=O)[C@H](CO)NC(=O)[C@@H]1CCCN1C(=O)[C@H](CO)NC(=O)[C@@H](N)CCC(N)=O)C(=O)N[C@@H](CCCCN)C(=O)N[C@@H](CCC(N)=O)C(=O)N[C@@H](CCSC)C(=O)N[C@@H](CC(C)C)C(=O)N[C@@H](Cc1c[nH]cn1)C(=O)N[C@@H](CCC(N)=O)C(=O)N[C@@H](CCC(=O)O)C(=O)N[C@@H](CS)C(=O)N1CCC[C@H]1C(=O)N[C@@H](CCCNC(=N)N)C(=O)N[C@@H](CC(C)C)C(N)=O` has a Kd of 0.0016 ± 0.0006 µM (human IgE; binding, SPR imaging; PBS-T; pH 7.2).
The Kd of `N[C@@H](Cc1ccc(O)c(I)c1)C(=O)O` is reported as 133 ± 10 µM (Iodotyrosine deiodinase (Haliscomenobacter hydrossis, UniProt F4KU78, R38K); binding).
`O=C(O)CCCN1CC=C(c2ccccc2)CC1` has a Kd of over 1000 µM (Ubiquitin carboxyl-terminal hydrolase 39, ZnF-UBD domain (Homo sapiens, UniProt Q53GS9)).
The Kd of `CSCC[C@H](NC(=O)CNC(=O)[C@H](Cc1ccccc1)NC(=O)[C@H](CC(=O)O)NC(=O)CNC(=O)c1ccc2c(c1)C(=O)OC21c2ccc(N(C)C)cc2Oc2cc(N(C)C)ccc21)C(=O)N[C@@H](CO)C(=O)N[C@@H](CCCNC(=N)N)C(=O)N[C@@H](CC(=O)O)C(=O)N[C@H](C(=O)N[C@@H](Cc1ccc(OP(=O)(O)O)cc1)C(=O)N[C@@H](CO)C(=O)N[C@H](C(=O)N[C@@H](CC(=O)O)C(=O)N[C@@H](Cc1ccc(O)cc1)C(=O)N[C@@H](Cc1ccc(O)cc1)C(=O)N[C@@H](CCCNC(=N)N)C(=O)N[C@H](C(=O)N[C@@H](CC(=O)O)C(=O)O)C(C)C)[C@@H](C)O)C(C)C` is reported as 1.67 µM (TNS2, SH2 domain (Homo sapiens, UniProt Q63HR2); binding).
For `CC[C@H](C)[C@H](NC(=O)[C@H](Cc1c[nH]c2ccccc12)NC(=O)[C@H](Cc1ccccc1)NC(=O)[C@H](CCCCN)NC(=O)[C@H](CC(N)=O)NC(=O)[C@H](CC(C)C)NC(=O)[C@@H](NC(=O)[C@H](Cc1c[nH]cn1)NC(=O)[C@H](CC(=O)O)NC(=O)[C@H](CC(C)C)NC(=O)[C@H](Cc1ccccc1)NC(=O)[C@@H](NC(=O)[C@@H]1CCCN1C(=O)[C@@H](N)CCSC)[C@@H](C)CC)[C@@H](C)CC)C(=O)N[C@@H](CC(C)C)C(=O)N[C@@H](Cc1c[nH]cn1)C(=O)N[C@@H](Cc1ccc(O)cc1)C(=O)N[C@@H](C)C(N)=O`, the Kd was 0.0265 µM and 0.0498 µM (CD274; biolayer interferometry).
With `CCCCCCCC(=O)OC[C@H](COP(=O)(O)O[C@@H]1[C@H](O)[C@H](OP(=O)(O)O)[C@@H](O)[C@H](O)[C@H]1O)OC(=O)CCCCCCC` the Kd was 0.77 ± 0.063 µM (PP2C family protein phosphatase (Vibrio splendidus, UniProt A0ABV4LX41, N199A)).
For `CC1(CNC(=O)[C@H](CN)NC(=O)c2ccc(C#Cc3ccccc3)cc2)NC(=O)NC1=O` (stereo partly drawn), the Kd was over 100 µM (UDP-3-O-acyl-N-acetylglucosamine deacetylase C40S; binding).
The Kd of `CCCOC/C(=N\c1ccc(Cl)cc1C(F)(F)F)n1ccnc1` is reported as 19.9 µM (Cytochrome P450 2A6 (CYP2A6, Homo sapiens, UniProt P11509); binding; 20 min, pH 7.4, purified protein, 2% DMSO).
`CC[C@H](C)[C@H](NC(=O)[C@H](N)Cc1ccc(O)cc1)C(=O)N[C@H](C(=O)N[C@@H](CC(=O)O)C(=O)N[C@H](C(=O)N1CCC[C@H]1C(=O)N[C@@H](CC(C)C)C(=O)NCC(=O)N[C@H](C(=O)N[C@@H](Cc1ccccc1)C(=O)N[C@@H](CC(C)C)C(=O)N[C@@H](CO)C(=O)N[C@@H](CO)C(=O)N[C@@H](CC(C)C)C(=O)N[C@@H](CCCCN)C(=O)N[C@@H](CCCNC(=N)N)C(=O)N[C@@H](CS)C(=O)O)C(C)C)[C@@H](C)O)[C@@H](C)CC` gave a Kd of 0.763 ± 0.055 µM (VPS26A/VPS35/VPS29; binding).
With `CC1(CNC(=O)[C@H](CN)NC(=O)c2ccc(-c3ccc(Br)cc3)cc2)NC(=O)NC1=O` (stereo partly drawn) the Kd was over 100 µM (UDP-3-O-acyl-N-acetylglucosamine deacetylase C40S; binding).
The Kd of `O=C(O)CNC(=O)c1cccnc1` is reported as 63.2 µM (Ubiquitin carboxyl-terminal hydrolase 3, ZnF-UBD domain (USP3, Homo sapiens, UniProt Q9Y6I4)).
`NCCc1ccccc1` has a Kd of 8 µM (SAR11_0271 Candidatus Pelagibacter; binding, ITC).
For `CN(CC(=O)O)C(=N)NP(=O)(O)O`, the Kd was 10 ± 8 µM (CKMT1A (Homo sapiens, UniProt P12532); microscale thermophoresis; pH 7.0, WT mutant, no substrate).
The Kd of `CC(=O)N[C@@H](Cc1ccccc1)C(=O)N[C@@H](CC(=O)O)C(=O)N1CCC[C@H]1C(=O)N1CCC[C@H]1C(=O)N[C@@H](CC(C)C)C(=O)N[C@@H](Cc1c[nH]cn1)C(=O)N[C@@H](CO)C(=O)N[C@H](C(=O)N[C@@H](C)C(N)=O)[C@@H](C)OP(=O)(O)O` is reported as 0.72 µM (Serine/threonine-protein kinase PLK1, polo-box domain (PLK1, Homo sapiens, UniProt P53350, Y417A/Y421A); isothermal titration calorimetry; Y417A/Y421A double mutant).
With `CC[C@H](C)[C@H](NC(=O)[C@H](CC(=O)O)NC(=O)[C@@H](NC(=O)[C@H](CC(N)=O)NC(=O)[C@H](CC(=O)O)NC(=O)[C@H](CC(=O)O)NC(=O)[C@H](Cc1ccccc1)NC(=O)[C@H](CC(C)C)NC(=O)[C@@H](N)CC(N)=O)[C@@H](C)CC)C(=O)N[C@@H](Cc1ccccc1)C(=O)N[C@@H](C)C(=O)N[C@@H](CC(=O)O)C(=O)N[C@@H](CC(C)C)C(=O)N[C@H](C(=O)O)[C@@H](C)O` the Kd was 63.5 ± 8.7 µM (VPS26A/VPS35/VPS29; binding, ITC; pH 7.5, added: FAM21 peptides).
`CSCC[C@H](NC(=O)[C@H](CC(=O)O)NC(=O)c1ccc2c(c1)C(=O)OC21c2ccc(N(C)C)cc2Oc2cc(N(C)C)ccc21)C(=O)N[C@@H](CO)C(=O)N[C@@H](CCCCN)C(=O)N[C@@H](CC(=O)O)C(=O)N[C@@H](CCC(=O)O)C(=O)N[C@@H](CO)C(=O)N[C@H](C(=O)N[C@@H](CC(=O)O)C(=O)N[C@@H](Cc1ccc(OP(=O)(O)O)cc1)C(=O)N[C@H](C(=O)N1CCC[C@H]1C(=O)N[C@@H](CCSC)C(=O)N[C@@H](CC(C)C)C(=O)N[C@@H](CC(=O)O)C(=O)N[C@@H](CCSC)C(=O)N[C@@H](CCCCN)C(=O)N[C@@H](CC(=O)O)C(=O)O)C(C)C)C(C)C` gave a Kd of 0.652 µM (SH2 domain-containing adapter protein F, SH2 domain (SHF, Homo sapiens, UniProt Q7M4L6); binding).
`C[N+](C)(C)C` gave a Kd of 17 µM (Chrnd/Chrna1/Chrne G173K/S470W; resting state binding, agonist, single-channel kinetics).

For quick reference, copied from above:
The Kd of `O=C(O)CNC(=O)c1cccnc1` is reported as 63.2 µM (Ubiquitin carboxyl-terminal hydrolase 3, ZnF-UBD domain (USP3, Homo sapiens, UniProt Q9Y6I4)).
`NCCc1ccccc1` has a Kd of 8 µM (SAR11_0271 Candidatus Pelagibacter; binding, ITC).
For `CN(CC(=O)O)C(=N)NP(=O)(O)O`, the Kd was 10 ± 8 µM (CKMT1A (Homo sapiens, UniProt P12532); microscale thermophoresis; pH 7.0, WT mutant, no substrate).
